Measurements pooled from the literature.
Protocols differ between the studies behind these lines.
Target: Kappa-type opioid receptor (OPRK1, Homo sapiens, UniProt P41145)

Brc1ccc2c(c1)C(c1ccccn1)=NCc1c(-c3cnco3)ncn1-2  selectivity ratio (radioligand binding; rat; together with: [3H]U69593; relative to: KOR over benzodiazepine site): 14 fold
CN[C@@]1(c2ccccc2Cl)CCCCC1=O  inhibition (radioligand binding, agonist, radioligand displacement; 30 µM): 22%
Cl.NS(=O)(=O)c1ccc(C(=O)N[C@H]2CC[C@@]3(O)[C@H]4Cc5ccc(O)c6c5[C@@]3(CCN4CC3CC3)[C@H]2O6)s1  selectivity ratio (radioligand binding; CHO membranes; relative to: Ki µ over Ki κ): 4.32
Cn1cccc1-c1cccnc1  inhibition (binding; 50 µM): -7.64%
Cl.O=C(N[C@H]1CC[C@@]2(O)[C@H]3Cc4ccc(O)c5c4[C@@]2(CCN3CC2CC2)[C@H]1O5)c1ccc(Br)s1  selectivity ratio (radioligand binding; CHO membranes; relative to: Ki µ over Ki κ): 4
CN1CCN(c2cc(-c3ccncc3)c(-c3ccc4ccccc4c3)nn2)CC1  inhibition (antagonist, FLIPR; 10 µM): 10.5%
Cl.O=C(N[C@H]1CC[C@@]2(O)[C@H]3Cc4ccc(O)c5c4[C@@]2(CCN3CC2CC2)[C@H]1O5)c1ccc(F)s1  selectivity ratio (radioligand binding; CHO membranes; relative to: Ki µ over Ki κ): 7.59
O=C(Nc1cnccc1Cl)N1CCN(Cc2ccc3c(c2)OC(F)(F)O3)CC1  inhibition (radioligand binding, inhibitor; 10 µM, human, together with: [3H]diprenorphine): 4%
Cl.O=C(N[C@H]1CC[C@@]2(O)[C@H]3Cc4ccc(O)c5c4[C@@]2(CCN3CC2CC2)[C@H]1O5)c1ccc([N+](=O)[O-])s1  selectivity ratio (radioligand binding; CHO membranes; relative to: Ki µ over Ki κ): 2.11
CN(C)C1(CNC(=O)c2ccc3c(c2)CCN3C(=O)c2ccccc2)CCOCC1  inhibition (10 µM): > 50%
C/C=C1/C[N+]2(CC3CC3)CC[C@]34C(=C(C(=O)OC)[C@H]1C[C@@H]32)Nc1ccccc14.[Br-] (stereo partly shown)  EC50 fold decrease (cAMP inhibition, agonist; CHO-K1; relative to: relative to 1): ~4 fold
C/C=C1/CN2CC[C@]34C(=C(C(=O)OC)[C@H]1C[C@H]23)Nc1ccc(I)cc14  selectivity ratio (radioligand binding; CHO cell membranes; together with: [3H]diprenorphine; relative to: KOR over MOR): 164 fold
O=C(Nc1cccnn1)N1CCC(=Cc2cccc(Oc3ccc(C(F)(F)F)cn3)c2)CC1  inhibition (radioligand binding, inhibitor; 50 µM, human, together with: [3H]diprenorphine): 94%

Some of these lines once more:
Cl.NS(=O)(=O)c1ccc(C(=O)N[C@H]2CC[C@@]3(O)[C@H]4Cc5ccc(O)c6c5[C@@]3(CCN4CC3CC3)[C@H]2O6)s1  selectivity ratio (radioligand binding; CHO membranes; relative to: Ki µ over Ki κ): 4.32
